Results pooled from the literature.
Each line is one published result; not all experiments were run side by side.

SMILES | organism | method | strain | sample | time | setting | MIC
Cc1cc(-c2cn[nH]c2-c2cccc(OCc3cccc(C#N)c3)c2)cc(C)n1 | Salmonella Typhimurium | broth microdilution | ATCC 14028 | – | – | – | 1 µg/mL
OC(Cn1cncn1)(Cn1cncn1)c1ccc(F)cc1F | Candidozyma auris | broth microdilution | CBS 15108 | – | 24 h | – | > 400 µM
Cc1c(CN(C)C(=O)/C=C/c2cnc3c(c2)CCC(=O)N3)oc2ccccc12 | Escherichia coli | broth microdilution | AR-0058 | – | – | – | 32 µg/mL
NC[C@H]1O[C@H](O[C@H]2[C@H](O)[C@@H](O[C@H]3O[C@H](CO)[C@@H](O)[C@H](N)[C@H]3O)[C@H](N)C[C@@H]2N)[C@H](O)[C@@H](O)[C@@H]1O | Micrococcus luteus | broth microdilution | ATCC 4698 | – | – | – | 3.43 µM
CC1(C)S[C@@H]2[C@H](NC(=O)[C@H](N)c3ccccc3)C(=O)N2[C@H]1C(=O)O | Pseudomonas aeruginosa | – | clinical isolate RKI-No_597/16 | – | – | – | > 16 µg/mL
CO/N=C(\C(=O)N[C@@H]1C(=O)N2C(C(=O)O)=C(CSc3nc(=O)c(O)nn3C)CS[C@H]12)c1csc(N)n1 | Neisseria gonorrhoeae | – | WHO F | DMEM | 1.5 h | – | 0.0625 µg/mL
CN[C@H](CC(C)C)C(=O)N[C@H]1C(=O)N[C@@H](CC(N)=O)C(=O)N[C@H]2C(=O)N[C@H]3C(=O)N[C@H](C(=O)N[C@H](C(=O)O)c4cc(O)cc(O)c4-c4cc3ccc4O)[C@H](O)c3ccc(c(Cl)c3)Oc3cc2cc(c3O[C@@H]2O[C@H](CO)[C@@H](O)[C@H](O)[C@H]2O[C@H]2C[C@](C)(N)[C@H](O)[C@H](C)O2)Oc2ccc(cc2Cl)[C@H]1O | Micrococcus luteus | – | ATCC 4698 | – | 43 h | – | 0.5 µg/mL
CC1NC(=O)C(C(=O)NC(C(=O)NC2C(=O)N3C2SC(C)(C)C3C(=O)O)c2ccccc2)=C1O (stereo not drawn) | Escherichia coli | broth microdilution | BW25113 wild type | – | 18 h | – | 100 µg/mL
CC1(C)S[C@@H]2[C@H](NC(=O)Cc3ccccc3)C(=O)N2[C@H]1C(=O)O | Neisseria gonorrhoeae | broth microdilution | WHO K | – | 1.5 h | – | 32 µg/mL
c1ccc(OCCn2c(CNCC34CC5CC(CC(C5)C3)C4)nc3ccccc32)cc1 | Enterobacter aerogenes | – | ATCC 35029 | – | – | – | > 128 µg/mL
CC[C@H]1OC(=O)[C@H](C)[C@@H](O[C@H]2C[C@@](C)(OC)[C@@H](O)[C@H](C)O2)[C@H](C)[C@@H](O[C@@H]2O[C@H](C)C[C@H](N(C)C)[C@H]2O)[C@](C)(O)C[C@@H](C)CN(C)[C@H](C)[C@@H](O)[C@]1(C)O | Neisseria gonorrhoeae | broth microdilution | WHO F | – | 1.5 h | – | 0.0625 µg/mL
N=C(N)c1ccc(OCc2cc(Br)cc(COc3ccc(C(=N)N)cc3)c2)cc1 | Escherichia coli | – | mcr-1 polymyxin-resistant | – | 20 h | compound alone | 100 µg/mL

Excerpt of the above:
SMILES | organism | method | strain | sample | time | setting | MIC
CC1(C)S[C@@H]2[C@H](NC(=O)Cc3ccccc3)C(=O)N2[C@H]1C(=O)O | Neisseria gonorrhoeae | broth microdilution | WHO K | – | 1.5 h | – | 32 µg/mL
